# Results from different studies.
# Numbered parts are unrelated; each lists some results of a single study.

# Study 1
# Target: RING finger protein unkempt homolog, zinc fingers 1-6, GST-SBP tag (UNK, Homo sapiens, UniProt Q9C0B0, residues 30-357)
# Method: RNA Bind-n-Seq
# Molecule type: RNA
# Sample: in vitro
# Tested at: not given
# Setting: RNA with constant flanks, human-mouse chimeric sites, ends assumed
# Relative to: input RNA pool
# Direction: higher = stronger binding
# Shared flanks, not repeated: GGGAGUUCUACAGUCCGACGAUC … CAACAGAGGAUUGAGCAUCA
# Residues (chain): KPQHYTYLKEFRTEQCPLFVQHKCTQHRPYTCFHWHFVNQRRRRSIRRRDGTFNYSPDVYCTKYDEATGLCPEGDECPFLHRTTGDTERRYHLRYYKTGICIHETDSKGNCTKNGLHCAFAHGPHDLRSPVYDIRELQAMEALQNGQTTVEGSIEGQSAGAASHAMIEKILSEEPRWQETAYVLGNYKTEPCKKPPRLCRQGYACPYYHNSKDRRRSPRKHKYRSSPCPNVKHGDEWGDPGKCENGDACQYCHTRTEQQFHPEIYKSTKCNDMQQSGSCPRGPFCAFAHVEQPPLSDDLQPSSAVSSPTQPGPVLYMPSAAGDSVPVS
Oligonucleotide,bound/input enrichment [ratio]
CACAGAGGAGAUCUGCUGUUCCUCACGAAUUUCCGGGAGGACCCCAUCAGAGCUGGUGAAAUAGUUGUUUUUAAAGUUGAAGGAAGAGACAUUCCAAUAGUUCACAGAGUAAUCAAGGUU,3.63
CCCCAAUUACCAUCUGUGGUCUGGAACUGCACUCUCUUUUUUAAAAAACAUGUAUACAUUUUAGGGCUGUAGAUUUAUUUUCCUGGUUUCUUUUCCAAUUGCUGACUUUUGAGCACAGAA,1.91
CACAGAGCAGCACCUACCUCCUCCUUCUUUCCACACCUGCAAACCCUUUUACUUGGGCUGAAUAUUUAGUGUAAUUACAUCUCAGCUUUGAGGGCUCCUGUGGCAAAUUCCCGGAUUAAA,0.61
UACUACUAUGAUGGUGAUAUUGGCAAUUAUUAUUAUGGACAGGGUCAUCCCAUGAAGCCUCAUAGAAUCCGGAUGACUCAUAACUUGCUGUUAAAUUAUGGUUUAUACCGAAAAAUGGAA,0.347
GAAACUAUUCCUAAAGAGGAGAAAGCUGAGAAGGAUGCUCGGAGAUCAUCUCUUGAGAAACAUAGAAAAGAAAAGCCUUUUAAAACCGGGAGAGGCAGAAUUUCCACUCCUGAAAGAAAA,0.252
UUUGUAUUCAUGUUAAGCACACGUGCUGGUGGUCUUGGCAUCAAUCUUGCAACUGCUGAUGUAGUCAUUUUAUAUGACUCAGAUUGGAAUCCGCAAGUUGAUCUUCAGGCUAUGGACCGU,0.214
CUGUUUUACAGCCACACCAAUCUUGGCAUGUAUUAAGGAAAAAAAAAAUCCCUGUUGAAGUAGUUUUUCCACCUAUCAGCACUGAGUAAAUGCCAUAACUCCGCGGAAAUGGUCUAAAUA,0.229
CUGAGGAUACCACUGAAGAGACCUUAAAAGGAGUCAUUGAGGGCUCUGUUCGUGCAAGAAUAGUCACUGAUCGGGAAACUGGUUCUUCCAAAGGGUUUUGGUUUUGUGACUUUAAUAGUG,0.453
CGGAGCCCCUCCCUCUCACAGGCCCAAGAUAUAACCCACCAGUGCCUUUUGUCUUCCUGUCAGCUCUGUCAAUCACGGCCCUGCCUUCACGCCCACACCAAGUGCCCAAAGUGGGGAGGG,0.249
UCAACAGACAACAUCAAAUACCAGCCUAAGGGGGGUCAGGUACAAAUUGUUACCAAGAAAAUAGACCUAAGCCAUGUGACAUCCAAAUGUGGCUCUCUGAAGAACAUCCGCCACAGGCCA,0.679
UGACAAGGGCACUGCAGAGCCAUGCCUUUCCUUGACAUCCAGAAAAGGUUCGGCCUUAGCCUGGACCGGCACUUUAUGUUCCUAAGCGCAGAACAGCCCUAUAAGAACGCCGCUCGGUGC,0.0601

# Study 2
# Target: Histone acetyltransferase KAT6A, winged helix 1, GST fusion (KAT6A, Homo sapiens, UniProt Q92794, residues 1-85)
# Method: protein binding microarray
# Molecule type: double-stranded DNA, one strand shown
# Sample: in vitro
# Tested at: not given
# Setting: 8-mer, flanks averaged, mean of 2 arrays, mostly near background
# Relative to: not given
# Direction: higher = stronger binding
# Target sequence (chain): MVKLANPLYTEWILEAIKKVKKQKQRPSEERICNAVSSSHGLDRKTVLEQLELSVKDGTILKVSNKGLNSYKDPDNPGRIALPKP
Oligonucleotide,E-score
CCGACACG,0.0515
TCAAAAAA,-0.0575
CCTACTAC,0.0753
AGGTCCCA,-0.257
GACTCTCA,-0.0344
ATCGGCCG,0.39
CCGCCAAG,0.241
ACAATGTC,-0.0305
CGCTGGCA,0.0705
GTTCCCCA,-0.0916
TAGCATAA,-0.0909
ATTAGTGG,-0.175
AGTAAAAT,-0.157
CCAGGTAG,-0.0951
CCGCTGGA,0.232
GTGAGCGA,0.0836
ATCAAGTG,-0.164
CTCTTAAA,-0.293
CGGTTACA,0.184
CACATGCC,0.0143
CGCCTAGA,0.278
CAAGAACA,-0.202

# Study 3
# Target: Prothrombin, mature alpha-thrombin (F2, Homo sapiens, UniProt P00734)
# Method: aptamer microarray, sandwich
# Molecule type: DNA with 2'F-ANA
# Sample: in vitro
# Tested at: 200 nM
# Setting: whole 15-mer aptamer, many near background
# Together with: Cy3 exosite-II aptamer, 400 nM
# Direction: higher = stronger binding
# Oligonucleotide: GGTTGGTGTGGTTGG
Modification,mean fluorescence intensity [a.u.]
2'F-ANA at 3 7 9 10 11 13 14 15,339
2'F-ANA at 1 2 7 8 9 10 11 13 14,49.3
2'F-ANA at 1 4 5 7 9 10 11,46.2
2'F-ANA at 2 3 5 6 7 9 10 11 12 14,55.1
2'F-ANA at 2 3 4 7 10 11 13,206
2'F-ANA at 1 2 4 5 6 7 8 14,48.5
2'F-ANA at 1 4 5 7 8 9 10 13,47.2
2'F-ANA at 1 3 6 7 10 15,84.6
2'F-ANA at 1 3 6 7 8 9 15,298
2'F-ANA at 2 6 7 10 11 13 15,99.1
2'F-ANA at 1 3 6 7 9 10 12 13 14 15,66.3
2'F-ANA at 1 3 6 10 11 13 15,72.3
2'F-ANA at 1 4 5 6 8 9 14,47.7
2'F-ANA at 3 4 6 7 8 10 12 13 14 15,160
2'F-ANA at 6 9 12 13,644
2'F-ANA at 3 4 5 6 11,80.9
2'F-ANA at 7 10,246
2'F-ANA at 1 4 6 12 13 14 15,57
2'F-ANA at 1 4 5 6 7 11,51.5
2'F-ANA at 1 3 4 5 6 7 8 12 13 14,48.6

# Study 4
# Target: Sal-like protein 4, full length isoform A (SALL4, Homo sapiens, UniProt Q9UJQ4, residues 1-1053)
# Chain of UniProt Q9UJQ4 (whole entry, looked up): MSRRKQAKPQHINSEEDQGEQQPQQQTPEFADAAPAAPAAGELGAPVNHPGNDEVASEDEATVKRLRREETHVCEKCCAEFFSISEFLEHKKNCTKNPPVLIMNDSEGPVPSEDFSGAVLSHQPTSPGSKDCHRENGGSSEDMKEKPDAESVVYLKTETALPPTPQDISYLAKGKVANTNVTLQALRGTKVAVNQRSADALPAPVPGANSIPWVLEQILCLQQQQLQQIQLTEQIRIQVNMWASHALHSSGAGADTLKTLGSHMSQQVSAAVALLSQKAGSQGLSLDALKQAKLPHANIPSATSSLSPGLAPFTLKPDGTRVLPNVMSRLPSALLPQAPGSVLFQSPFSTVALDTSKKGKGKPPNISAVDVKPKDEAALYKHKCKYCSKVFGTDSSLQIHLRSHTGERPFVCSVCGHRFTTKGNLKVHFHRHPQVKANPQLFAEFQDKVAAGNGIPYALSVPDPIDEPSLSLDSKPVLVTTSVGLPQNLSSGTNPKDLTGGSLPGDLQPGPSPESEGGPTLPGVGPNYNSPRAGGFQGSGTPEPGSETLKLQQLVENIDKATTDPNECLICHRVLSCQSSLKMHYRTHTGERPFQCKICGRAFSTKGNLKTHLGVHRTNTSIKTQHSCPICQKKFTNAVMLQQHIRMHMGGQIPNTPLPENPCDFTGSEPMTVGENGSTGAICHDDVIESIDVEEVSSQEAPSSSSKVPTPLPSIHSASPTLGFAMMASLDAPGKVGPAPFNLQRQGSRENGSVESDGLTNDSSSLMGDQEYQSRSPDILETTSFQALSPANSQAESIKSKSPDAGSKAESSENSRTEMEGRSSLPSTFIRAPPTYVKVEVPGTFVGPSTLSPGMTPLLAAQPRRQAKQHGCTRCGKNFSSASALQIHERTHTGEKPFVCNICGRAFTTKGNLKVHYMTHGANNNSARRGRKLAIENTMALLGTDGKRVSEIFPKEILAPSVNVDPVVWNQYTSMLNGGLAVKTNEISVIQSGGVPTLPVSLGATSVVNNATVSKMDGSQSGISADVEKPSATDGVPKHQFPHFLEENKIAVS
# Method: universal PBM
# Molecule type: double-stranded DNA, one strand shown
# Sample: in vitro
# Tested at: 600 nM
# Setting: 8-mer, flanks averaged, mean of replicates
# Direction: higher = stronger binding
Oligonucleotide,E-score
GAAATTCC,0.0357
AACGGATC,0.0576
ACGAGTAT,0.12
TCGCCGCA,-0.136
CGTTTCAG,-0.0473
CACGATCC,-0.124
TCCAGTCA,-0.104
CCAATGAC,-0.00231
GTGTATTA,0.318
CACGAGTC,-0.123
ACACAAAT,0.234
CGCGTATC,-0.0138
CAATACCC,0.0203
CCAACTGG,-0.149
ACTAAGGG,-0.131
AATTCGTA,0.289
AACTGCGG,-0.188

# Excerpt of the above (study 2):
Oligonucleotide,E-score
CGCTGGCA,0.0705
GTTCCCCA,-0.0916
TAGCATAA,-0.0909
ATTAGTGG,-0.175
AGTAAAAT,-0.157
CCAGGTAG,-0.0951
CCGCTGGA,0.232
GTGAGCGA,0.0836
ATCAAGTG,-0.164
CTCTTAAA,-0.293
